# Assay results pooled from the literature.
# Protocols differ between the studies behind these lines. Values joined by “and” are separate records of one study, mostly repeats; a detail may differ. Numbers after ± are the reported error.
Compound,target or system,assay,system,setting,how to read,measurement,result
COC1OC(C)C(OC2OC(C)C(O)C(OC3OC(C)C(OC4OC(C)C(O)C(OC5OC(C)C(O)C(OS(=O)(=O)O)C5OS(=O)(=O)O)C4OS(=O)(=O)O)C(OS(=O)(=O)O)C3OS(=O)(=O)O)C2OS(=O)(=O)O)C(OS(=O)(=O)O)C1OS(=O)(=O)O (stereo not shown),,,human plasma,128 µg/mL,,prothrombin time,14.4 ± 0.5 s
Oc1cc2c(cc1O)C(c1ccccc1)NCC2 (stereo not shown),,ABTS scavenging,,"10 min, dark",,IC50,7.06 µM
CN[C@H]1CCN(C(=O)c2c(C)cc(C(F)(F)F)nc2-c2ccnc3cc(CN4C(=O)C5C(C4=O)C5(C)C)sc23)C1 (stereo partly shown),,flow cytometry,"splenic CD11b+ myeloid, CD11c+MHC-II+ dendritic cells, B16F10 tumour-bearing mouse",dose not given,,VISTA expression,no effect
Cc1cnc(Nc2ccc(OCCN3CCCC3)cc2)nc1Nc1cccc(S(=O)(=O)NC(C)(C)C)c1,,"AlphaScreen signal, AlphaScreen counter screen",His6 peptide without bromodomain,"50 µM, assay interference check",,inhibition,43%
COc1ccc(C2NCCc3cc(O)c(O)cc32)cc1 (stereo not shown),,ABTS scavenging,,"10 min, dark",,IC50,5.53 µM
CC(C)C[C@H](NC(=O)[C@H](CC(=O)O)NC(=O)CNC(=O)[C@@H](N)CCCNC(=N)N)C(=O)N[C@@H](C)C(=O)N[C@H](C(=O)N[C@@H](CC(C)C)C(=O)N[C@@H](CCCNC(=N)N)C(=O)N[C@@H](CCC(N)=O)C(=O)N[C@@H](CC(C)C)C(=O)N[C@@H](C)C(=O)N[C@@H](CCC(N)=O)C(=O)N[C@@H](CCC(=O)O)C(=O)N[C@@H](CC(=O)O)C(=O)NCC(=O)N[C@H](C(=O)N[C@H](C(=O)NCC(=O)N[C@H](C(=O)N[C@@H](CCCNC(=N)N)C(=O)NCCOCCOCCOCCOCCOCCOCCOCCOCCOCCOCCOCCOCCC(=O)N[C@@H](CS)C(N)=O)C(C)C)C(C)C)C(C)C)[C@@H](C)O,,ex vivo NIR imaging,"NOD/SCID mice, xenograft, H2009 xenograft","intravenous, 30 µg, 24 h",relative to: liver,fluorescence signal ratio,1.2 and 0.2
CC(C)(C)NCC(SS(=O)(=O)O)c1ccccc1 (stereo not shown),,,Schistosoma mansoni-infected mice,"400 mg/kg single, day 42, perfusion day 56",,liver weight,4.15 g
N[C@@H](CNC(=O)N[C@@H](CS)C(=O)NCC(=O)O)C(=O)O,,,"mouse C57BL/6, Aβ i.c.v. model, brain","intranasal, dose not given",,glyoxalase 1 activity,81.8 ± 7.1 ΔOD/min/mg protein
COC1OC(C)C(OC2OC(C)C(OS(=O)(=O)O)C(OC3OC(C)C(OS(=O)(=O)O)C(OS(=O)(=O)O)C3O)C2O)C(OS(=O)(=O)O)C1O (stereo not shown),,,human plasma,128 µg/mL,relative to: control,prothrombin time prolongation,1.01 fold
COC(=O)C1CN1S(=O)(=O)c1ccc2cc(C)ccc2c1 (stereo not shown),,,"mouse, Lewis lung carcinoma","ip, 100 mg/kg, 384 h",,tumour growth inhibition,58%
CC(=O)[O-].O.O.O.O.[Mn+2].[O-]c1ccc(Br)cc1C=NCCN1CCOCC1,,DPPH radical scavenging,,160 µM,,inhibition,34.9%
Fc1cccc(COc2ccc(Nc3ncnc4ccc(-c5ccc(N6CCNCC6)cc5)cc34)cc2Cl)c1,Leishmania major,"intracellular amastigote growth, luciferase",RAW264.7 macrophages,,,EC50,8.6 µM
COC1OC(C)C(OS(=O)(=O)O)C(OC2OC(C)C(OS(=O)(=O)O)C(OC3OC(C)C(OS(=O)(=O)O)C(OC4OC(C)C(OS(=O)(=O)O)C(OC5OC(C)C(OS(=O)(=O)O)C(OC6OC(C)C(OS(=O)(=O)O)C(OC7OC(C)C(OS(=O)(=O)O)C(OC8OC(C)C(OS(=O)(=O)O)C(OC9OC(C)C(OS(=O)(=O)O)C(OS(=O)(=O)O)C9O)C8O)C7O)C6O)C5O)C4O)C3O)C2O)C1O (stereo not shown),,,human plasma,128 µg/mL,,prothrombin time,15.3 ± 0.7 s
C[n+]1ccc(/C=N/NC(=O)c2ccc3ccc(C(=O)N/N=C/c4cc[n+](C)c5ccccc45)nc3n2)c2ccccc21,MYC parallel G4 DNA,FRET melting,,"1 µM, DNA 0.2 µM",,ΔTm,16.2 ± 0.2 °C
C[C@@H](Nc1c(-c2c(F)cc(C#N)cc2F)c(Cl)nc2ncnn12)C(C)(C)C,,"immunoblot, item: insoluble total tau","male PS19 tau transgenic mice, brain","intraperitoneal, 3 mg/kg twice weekly, 3 months",relative to: vehicle,reduction,~50%
COC1OC(C)C(O)C(OC2OC(C)C(O)C(OC3OC(C)C(O)C(OC4OC(C)C(O)C(OC5OC(C)C(O)C(OC6OC(C)C(O)C(OC7OC(C)C(O)C(OC8OC(C)C(O)C(OS(=O)(=O)O)C8OS(=O)(=O)O)C7OS(=O)(=O)O)C6OS(=O)(=O)O)C5OS(=O)(=O)O)C4OS(=O)(=O)O)C3OS(=O)(=O)O)C2OS(=O)(=O)O)C1OS(=O)(=O)O (stereo not shown),,,human plasma,128 µg/mL,relative to: control,prothrombin time prolongation,0.98 fold
O=C(NS(=O)(=O)c1cccs1)c1cc2ccccc2n1Cc1ccc(Br)c2ccccc12,,,"mouse, acute hyperuricaemia model",1 mg/kg,,serum uric acid,205 ± 26.5 µM
COc1cc2c(NC3CCN(C(C)C)CC3)cc(N3CCOCC3)nc2cc1OCCCN1CCCC1,,"TMT proteomics, item: YWHAB","5xFAD mice, hippocampus",dose not given,relative to: wild-type mice,log2 fold change,0.041
COC1OC(C)C(OC2OC(C)C(O)C(OC3OC(C)C(O)C(OS(=O)(=O)O)C3OS(=O)(=O)O)C2OS(=O)(=O)O)C(OS(=O)(=O)O)C1OS(=O)(=O)O (stereo not shown),,,human plasma,128 µg/mL,,prothrombin time,15.2 ± 0.4 s
COc1cc([C@@H](O)[C@H](O)CO)ccc1O,,ABTS scavenging,,,,IC50,7.16 µg/mL
CN1CCC[C@]1(C)/C=C/S(=O)(=O)NC(=O)Nc1c2c(cc3c1CCC3)CCC2,,,"human, whole blood ex vivo","12.5 mg twice daily, day 14, 36 h, multiple ascending dose, together with: LPS and ATP",,IL-18 inhibition,2.8%
CC(CCC(=O)NCc1ccc(C(=O)NO)cc1)C1CCC2C3C(O)CC4CC(O)CCC4(C)C3CCC12C (stereo not shown),,item: TUDCA,"PCK rat (Pkhd1 mutant), liver","oral gavage, dose not given, 5 months",relative to: total bile acids,relative abundance,8.84%
COC1OC(C)C(OS(=O)(=O)O)C(OC2OC(C)C(OS(=O)(=O)O)C(OC3OC(C)C(OS(=O)(=O)O)C(OC4OC(C)C(OS(=O)(=O)O)C(OC5OC(C)C(OS(=O)(=O)O)C(OC6OC(C)C(OS(=O)(=O)O)C(OC7OC(C)C(OS(=O)(=O)O)C(OS(=O)(=O)O)C7O)C6O)C5O)C4O)C3O)C2O)C1O (stereo not shown),,,human plasma,128 µg/mL,,prothrombin time,15.1 ± 0.1 s
COc1ccc(Nc2ncnc3ccc(-c4ccc(S(=O)(=O)N5CCN(C)CC5)cc4)cc23)cc1Cl,Leishmania major,"intracellular amastigote growth, luciferase",RAW264.7 macrophages,,,EC50,> 15 µM
CC1(C)CC[C@@]2(CO)C(=C3C=C[C@@H]4[C@@]5(C)CC[C@H](O)[C@@](C)(CO)[C@@H]5CC[C@@]4(C)[C@]3(C)C[C@@H]2O)C1,,,chronic-plus-binge ethanol-fed mice,"intraperitoneal, 50 mg/kg daily, 7 d",,liver to body weight ratio,0.047% and 0.042% and 0.037%
COc1ccccc1-c1ccncc1C(=O)Nc1nnc(OCc2ccc(Cl)cc2)s1,,,"Brca1 Δ11/Δ11 MEF sgGFP, Mus musculus","5 µM, mean of all runs",relative to: 0 µM,colony survival,72.2%
O=C(N/N=C/c1ccc2c(ccc[n+]2Cc2ccccc2)c1)c1cc(C(=O)N/N=C/c2ccc3c(ccc[n+]3Cc3ccccc3)c2)ncn1,MYC parallel G4 DNA,FRET melting,,"1 µM, DNA 0.2 µM",,ΔTm,6 ± 1.2 °C
COC1OC(C)C(O)C(OC2OC(C)C(O)C(OC3OC(C)C(O)C(OC4OC(C)C(O)C(OC5OC(C)C(O)C(OC6OC(C)C(O)C(OC7OC(C)C(O)C(OC8OC(C)C(O)C(OC9OC(C)C(O)C(OC%10OC(C)C(O)C(OS(=O)(=O)O)C%10OS(=O)(=O)O)C9OS(=O)(=O)O)C8OS(=O)(=O)O)C7OS(=O)(=O)O)C6OS(=O)(=O)O)C5OS(=O)(=O)O)C4OS(=O)(=O)O)C3OS(=O)(=O)O)C2OS(=O)(=O)O)C1OS(=O)(=O)O (stereo not shown),,,human plasma,128 µg/mL,,prothrombin time,14.8 ± 0.2 s
CC[C@H](C)NCC(SS(=O)(=O)O)c1ccccc1 (stereo partly shown),,,"Swiss Webster mice, Schistosoma mansoni infected",100 mg/kg,relative to: vehicle control,liver weight decrease,16%
COC1OC(C)C(O)C(OC2OC(C)C(O)C(OC3OC(C)C(O)C(OC4OC(C)C(O)C(OC5OC(C)C(O)C(OC6OC(C)C(O)C(OC7OC(C)C(O)C(OC8OC(C)C(O)C(OC9OC(C)C(O)C(OC%10OC(C)C(O)C(OC%11OC(C)C(O)C(OC%12OC(C)C(O)C(OS(=O)(=O)O)C%12OS(=O)(=O)O)C%11OS(=O)(=O)O)C%10OS(=O)(=O)O)C9OS(=O)(=O)O)C8OS(=O)(=O)O)C7OS(=O)(=O)O)C6OS(=O)(=O)O)C5OS(=O)(=O)O)C4OS(=O)(=O)O)C3OS(=O)(=O)O)C2OS(=O)(=O)O)C1OS(=O)(=O)O (stereo not shown),,,human plasma,128 µg/mL,,prothrombin time,14.5 ± 0.3 s
COC1CN([C@H]2CC[C@H]([C@@]3(C)Oc4c(Cl)cc(C(=O)NCc5c(SC)cc(C)[nH]c5=O)c(C)c4O3)CC2)C1,,"RNA-seq, item: HOMER3 mouse homolog","mouse, HT-1376 xenograft, whole blood",dose not given,relative to: vehicle,log2 fold change,0.386
